Assay results from different studies.
Parts stem from different laboratories: compare values within a part only. “And” joins repeats or separate records; there may be more than shown.
UniProt P07949, sequence (whole entry, unmodified, looked up): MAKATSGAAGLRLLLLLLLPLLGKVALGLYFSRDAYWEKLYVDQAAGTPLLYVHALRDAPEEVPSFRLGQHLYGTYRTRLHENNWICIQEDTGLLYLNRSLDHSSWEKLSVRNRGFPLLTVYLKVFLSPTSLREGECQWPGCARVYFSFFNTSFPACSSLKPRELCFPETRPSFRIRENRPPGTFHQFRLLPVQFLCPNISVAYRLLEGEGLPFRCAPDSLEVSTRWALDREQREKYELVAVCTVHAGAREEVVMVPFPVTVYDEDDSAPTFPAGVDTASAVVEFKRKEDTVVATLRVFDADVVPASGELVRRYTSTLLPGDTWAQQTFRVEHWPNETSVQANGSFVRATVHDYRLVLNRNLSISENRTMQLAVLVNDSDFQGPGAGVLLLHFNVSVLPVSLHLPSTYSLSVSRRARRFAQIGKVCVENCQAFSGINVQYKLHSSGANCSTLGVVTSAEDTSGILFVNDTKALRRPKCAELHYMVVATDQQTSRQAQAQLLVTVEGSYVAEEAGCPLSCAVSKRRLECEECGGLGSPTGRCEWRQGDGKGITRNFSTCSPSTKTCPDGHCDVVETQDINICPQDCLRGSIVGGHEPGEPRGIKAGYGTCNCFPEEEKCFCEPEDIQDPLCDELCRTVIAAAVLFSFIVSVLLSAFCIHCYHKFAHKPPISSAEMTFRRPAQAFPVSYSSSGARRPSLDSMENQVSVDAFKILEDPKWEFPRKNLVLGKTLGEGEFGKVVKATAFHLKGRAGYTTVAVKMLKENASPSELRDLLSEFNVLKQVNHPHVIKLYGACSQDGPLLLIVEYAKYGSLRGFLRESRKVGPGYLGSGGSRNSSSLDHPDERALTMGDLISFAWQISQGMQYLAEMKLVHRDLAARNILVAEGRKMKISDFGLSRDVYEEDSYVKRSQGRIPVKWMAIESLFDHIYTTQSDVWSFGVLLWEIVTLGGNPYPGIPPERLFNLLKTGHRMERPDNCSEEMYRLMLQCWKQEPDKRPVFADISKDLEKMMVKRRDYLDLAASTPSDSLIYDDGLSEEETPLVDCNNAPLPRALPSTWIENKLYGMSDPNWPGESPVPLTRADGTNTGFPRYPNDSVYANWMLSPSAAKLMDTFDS
UniProt Q8NEB9, sequence (whole entry, looked up): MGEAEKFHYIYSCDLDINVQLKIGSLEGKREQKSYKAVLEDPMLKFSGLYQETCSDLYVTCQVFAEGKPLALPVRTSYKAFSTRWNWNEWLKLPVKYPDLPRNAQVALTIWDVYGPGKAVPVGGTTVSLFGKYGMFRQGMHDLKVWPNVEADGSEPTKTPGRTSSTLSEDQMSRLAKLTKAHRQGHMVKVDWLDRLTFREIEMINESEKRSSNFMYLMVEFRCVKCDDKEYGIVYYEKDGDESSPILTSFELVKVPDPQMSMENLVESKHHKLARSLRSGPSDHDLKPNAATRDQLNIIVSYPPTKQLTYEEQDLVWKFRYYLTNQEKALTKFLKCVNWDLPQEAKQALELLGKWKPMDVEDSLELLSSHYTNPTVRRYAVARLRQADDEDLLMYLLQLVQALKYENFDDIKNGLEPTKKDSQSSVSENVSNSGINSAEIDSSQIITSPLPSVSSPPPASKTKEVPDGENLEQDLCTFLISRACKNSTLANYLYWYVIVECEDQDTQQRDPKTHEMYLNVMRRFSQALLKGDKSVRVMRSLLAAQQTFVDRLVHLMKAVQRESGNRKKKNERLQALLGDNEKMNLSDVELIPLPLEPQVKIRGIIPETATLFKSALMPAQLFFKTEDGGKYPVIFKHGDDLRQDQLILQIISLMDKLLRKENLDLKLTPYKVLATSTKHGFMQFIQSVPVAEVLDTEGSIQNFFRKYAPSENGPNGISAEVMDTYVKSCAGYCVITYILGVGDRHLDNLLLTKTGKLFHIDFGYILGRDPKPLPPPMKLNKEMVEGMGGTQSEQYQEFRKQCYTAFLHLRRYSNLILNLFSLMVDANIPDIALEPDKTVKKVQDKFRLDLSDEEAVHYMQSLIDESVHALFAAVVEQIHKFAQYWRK
UniProt Q8N568, sequence (whole entry, looked up): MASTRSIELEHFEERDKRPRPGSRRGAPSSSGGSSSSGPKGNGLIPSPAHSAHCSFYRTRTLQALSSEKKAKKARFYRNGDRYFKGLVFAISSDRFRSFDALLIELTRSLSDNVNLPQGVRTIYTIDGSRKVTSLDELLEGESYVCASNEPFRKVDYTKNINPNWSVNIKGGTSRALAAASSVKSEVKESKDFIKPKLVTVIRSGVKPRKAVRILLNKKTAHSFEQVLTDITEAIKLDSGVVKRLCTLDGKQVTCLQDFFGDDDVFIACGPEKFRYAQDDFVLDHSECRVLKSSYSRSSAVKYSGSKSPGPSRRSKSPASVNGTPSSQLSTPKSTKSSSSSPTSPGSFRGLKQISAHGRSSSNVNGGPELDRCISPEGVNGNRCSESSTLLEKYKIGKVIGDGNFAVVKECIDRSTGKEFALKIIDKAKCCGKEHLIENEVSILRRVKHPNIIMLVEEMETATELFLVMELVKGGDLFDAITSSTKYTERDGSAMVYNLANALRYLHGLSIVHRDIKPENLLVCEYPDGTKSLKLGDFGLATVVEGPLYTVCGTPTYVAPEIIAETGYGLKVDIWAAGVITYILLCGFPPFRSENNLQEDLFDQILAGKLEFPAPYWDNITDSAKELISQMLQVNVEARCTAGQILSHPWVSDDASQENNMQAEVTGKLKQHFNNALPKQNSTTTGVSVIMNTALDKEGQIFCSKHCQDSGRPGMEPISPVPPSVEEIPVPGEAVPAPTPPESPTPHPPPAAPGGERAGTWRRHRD
UniProt P57078, sequence (whole entry, looked up): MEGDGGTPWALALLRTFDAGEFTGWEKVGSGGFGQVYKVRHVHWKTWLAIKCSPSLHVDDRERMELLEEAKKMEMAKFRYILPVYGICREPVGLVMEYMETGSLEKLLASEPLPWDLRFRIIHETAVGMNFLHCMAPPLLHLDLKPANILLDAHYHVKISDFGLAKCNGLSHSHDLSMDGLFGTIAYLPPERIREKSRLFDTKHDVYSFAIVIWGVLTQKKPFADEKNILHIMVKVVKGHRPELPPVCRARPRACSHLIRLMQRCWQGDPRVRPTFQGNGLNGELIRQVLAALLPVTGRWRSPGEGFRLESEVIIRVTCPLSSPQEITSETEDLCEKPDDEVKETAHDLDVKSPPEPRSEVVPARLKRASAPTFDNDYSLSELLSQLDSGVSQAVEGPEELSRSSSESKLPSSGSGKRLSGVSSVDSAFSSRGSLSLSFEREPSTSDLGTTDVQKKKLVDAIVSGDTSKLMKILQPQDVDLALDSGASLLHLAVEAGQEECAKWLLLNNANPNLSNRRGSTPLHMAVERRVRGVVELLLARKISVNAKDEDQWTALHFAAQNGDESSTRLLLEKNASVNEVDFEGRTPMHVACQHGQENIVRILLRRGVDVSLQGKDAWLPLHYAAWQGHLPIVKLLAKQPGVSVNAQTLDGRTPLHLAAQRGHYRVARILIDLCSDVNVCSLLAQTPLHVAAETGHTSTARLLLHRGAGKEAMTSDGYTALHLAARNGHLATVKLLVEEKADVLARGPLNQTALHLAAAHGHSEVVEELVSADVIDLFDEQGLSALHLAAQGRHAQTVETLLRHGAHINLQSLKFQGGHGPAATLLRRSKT
UniProt Q59H18, sequence (whole entry, looked up): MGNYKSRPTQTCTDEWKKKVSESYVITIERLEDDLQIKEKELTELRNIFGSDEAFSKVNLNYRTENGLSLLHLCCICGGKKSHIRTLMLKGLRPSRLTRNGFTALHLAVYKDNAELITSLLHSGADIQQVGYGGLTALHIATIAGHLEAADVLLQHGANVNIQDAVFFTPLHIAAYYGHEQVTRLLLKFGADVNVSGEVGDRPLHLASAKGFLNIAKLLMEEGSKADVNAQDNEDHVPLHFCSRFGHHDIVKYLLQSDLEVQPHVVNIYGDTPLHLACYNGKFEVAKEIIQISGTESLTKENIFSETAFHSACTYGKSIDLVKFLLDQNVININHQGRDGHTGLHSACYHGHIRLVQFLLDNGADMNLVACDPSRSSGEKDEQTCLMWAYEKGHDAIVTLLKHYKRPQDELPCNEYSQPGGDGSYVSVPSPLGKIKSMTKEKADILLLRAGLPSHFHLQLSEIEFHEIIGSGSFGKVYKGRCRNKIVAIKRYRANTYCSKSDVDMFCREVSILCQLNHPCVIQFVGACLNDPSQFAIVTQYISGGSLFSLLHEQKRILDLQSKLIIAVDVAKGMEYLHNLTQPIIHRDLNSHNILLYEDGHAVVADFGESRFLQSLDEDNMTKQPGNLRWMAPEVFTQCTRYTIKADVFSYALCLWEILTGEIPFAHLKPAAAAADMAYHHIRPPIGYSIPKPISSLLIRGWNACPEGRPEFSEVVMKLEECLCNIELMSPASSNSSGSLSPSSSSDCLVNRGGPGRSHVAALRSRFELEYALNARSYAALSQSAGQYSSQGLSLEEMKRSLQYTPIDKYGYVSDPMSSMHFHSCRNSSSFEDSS

Series 1
SMILES: CSc1cccnc1N1CCN(Cc2nc3ccccc3[nH]2)CC1
Concentration: 1 µM
| target | test | remaining binding |
| --- | --- | --- |
| Ribosomal protein S6 kinase alpha-3, C-terminal kinase domain (RPS6KA3, Homo sapiens, UniProt P51812) | cell-free assay, competition with immobilised ligand | 77% |
| CLK2 (Homo sapiens, UniProt P49760) | cell-free assay, competition with immobilised ligand | 100% |
| SIK1 (Homo sapiens, UniProt P57059) | competition binding | 100% |
| ERBB4 (Homo sapiens, UniProt Q15303) | cell-free assay, competition with immobilised ligand | 83% |
| ALK (Homo sapiens, UniProt Q9UM73, C1156Y) | cell-free assay, competition with immobilised ligand | 93% |
| DCLK2 (Homo sapiens, UniProt Q8N568) | cell-free assay, competition with immobilised ligand | 100% |
| FLT3 (Homo sapiens, UniProt P36888, ITD) | cell-free assay, competition with immobilised ligand | 100% |
| EGFR (Homo sapiens, UniProt P00533, L858R/T790M) | cell-free assay, competition with immobilised ligand | 91% |
| STK39 (Homo sapiens, UniProt Q9UEW8) | cell-free assay, competition with immobilised ligand | 100% |
| TNNI3K (Homo sapiens, UniProt Q59H18) | cell-free assay, competition with immobilised ligand | 100% |
| RIPK4 (Homo sapiens, UniProt P57078) | cell-free assay, competition with immobilised ligand | 66% |
| Macrophage colony-stimulating factor 1 receptor, autoinhibited (CSF1R, Homo sapiens, UniProt P07333) | cell-free assay, competition with immobilised ligand | 73% |
| CDK15 (Homo sapiens, UniProt Q96Q40) | cell-free assay, competition with immobilised ligand | 100% |
| PIK3C3 (Homo sapiens, UniProt Q8NEB9) | cell-free assay, competition with immobilised ligand | 94% |
| RET (Homo sapiens, UniProt P07949, M918T) | cell-free assay, competition with immobilised ligand | 99% |
| FER (Homo sapiens, UniProt P16591) | cell-free assay, competition with immobilised ligand | 100% |

Series 2
Target: Ribosomal protein S6 kinase beta-2 (RPS6KB2, Homo sapiens, UniProt Q9UBS0)
UniProt Q9UBS0, sequence (whole entry, looked up): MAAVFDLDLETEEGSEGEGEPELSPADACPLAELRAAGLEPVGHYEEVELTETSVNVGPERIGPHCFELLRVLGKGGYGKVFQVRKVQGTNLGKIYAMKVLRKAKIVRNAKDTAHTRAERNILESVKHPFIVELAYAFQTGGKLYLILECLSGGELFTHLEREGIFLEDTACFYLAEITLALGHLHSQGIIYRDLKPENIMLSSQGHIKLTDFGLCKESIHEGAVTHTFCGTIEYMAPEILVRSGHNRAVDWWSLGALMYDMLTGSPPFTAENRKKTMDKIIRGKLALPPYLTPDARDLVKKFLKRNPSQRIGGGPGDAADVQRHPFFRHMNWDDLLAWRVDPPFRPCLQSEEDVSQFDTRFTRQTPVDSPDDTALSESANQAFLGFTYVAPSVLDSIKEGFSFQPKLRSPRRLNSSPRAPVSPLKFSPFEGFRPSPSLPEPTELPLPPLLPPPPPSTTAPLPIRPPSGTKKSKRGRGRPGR
Read-out: enzyme activity
Action: inhibitor
Concentration: 0.5 µM
Reference: control
| SMILES | remaining activity |
| --- | --- |
| O=C1NC(=O)c2c1c1c3ccccc3[nH]c1n1cncc21 | 74.7% |
| CN1CCN(c2ccc3nc(-c4c(N)c5c(F)cccc5[nH]c4=O)[nH]c3c2)CC1 | 100% |
| Cc1ccc(S(=O)(=O)/C=C/C#N)cc1 | 109% |
| O=C1NC(=O)c2c1c1c3ccccc3[nH]c1c1[nH]c3cc(Br)ccc3c21 | 83.9% |
| COc1ccc(COc2ccc(Cc3cnc(N)nc3N)cc2OC)cc1 | 100% |
| N#Cc1cnc2cnc(NCc3cccnc3)cc2c1Nc1ccc(F)c(Cl)c1 | 99.5% |
| c1ccc(-c2n[nH]c3c2oc2ccccc23)cc1 | 99.8% |
| O=Nc1c(-c2c(O)[nH]c3cc(Br)ccc23)[nH]c2ccccc12 | 100% |
| O=c1cc(N2CCOCC2)oc2c(-c3ccccc3)cccc12 | 94.9% |
| c1ccc2c(-c3ccncc3)c[nH]c2c1 | 97.8% |

Series 3
Cell line: mouse MPNST tumor cells
Method: high-content immunofluorescence imaging
Measured: nuclear SOX9
Concentration: 10 µM
Time: 12 h
Setting: mean of 2 replicates
Reference: DMSO control
Reading: higher = more nuclear SOX9
| Structure (SMILES) | nuclear SOX9 intensity |
| --- | --- |
| COc1cc(OC)cc(-c2ccc3c(-c4ccc(F)cc4)[nH]nc3n2)c1 | 119 % of DMSO |
| CC(C(=O)O)c1ccc2c(c1)Cc1cccnc1O2 (stereo not shown) | 95.2 % of DMSO |
| COc1cc(C(=O)N2CCC(N3CCN(C)CC3)CC2)ccc1Nc1ncc2c(n1)N(C)c1ccccc1C(=O)N2C | 301 % of DMSO |
| Clc1ccc(COC(Cn2ccnc2)c2ccc(Cl)cc2Cl)cc1 (stereo not shown) | 147 % of DMSO |
| NC(=O)c1cn(C2OC(CO)C(O)C2O)c2ncnc(N)c2c1=O (stereo not shown) | 79.3 % of DMSO |
| CC[C@]12CCCN3CCc4c(n(c5ccccc45)[C@@](O)(C(=O)OC)C1)[C@@H]32 | 102 % of DMSO |
| O=C(NCCN1CCC(n2c(=O)[nH]c3ccccc32)CC1)c1cc2cc(F)ccc2[nH]1 | 210 % of DMSO |
| CC(=O)O[C@H]1CC[C@@]2(C)C(=CC[C@@H]3[C@@H]2CC[C@]2(C)C(c4cccnc4)=CC[C@@H]32)C1 | 106 % of DMSO |
| Cc1cc(F)c(Nc2ncnc3cc(OCc4ccccc4)ccc23)cc1O | 121 % of DMSO |
| CCC1NC(=O)c2cc(S(N)(=O)=O)c(Cl)cc2N1 (stereo not shown) | 97.1 % of DMSO |
| CN1CC[C@@H](NC(=O)Nc2ccc(C#N)cc2)C[C@@H]1c1nc2ccccc2[nH]1 | 91.9 % of DMSO |
| N=C(N)c1ccc(-c2ccc(-c3ccc(C(=N)N)cc3)o2)cc1 | 70.1 % of DMSO |
| O=C1CCc2cc(OCCCCc3nnnn3C3CCCCC3)ccc2N1 | 99.7 % of DMSO and 104 % of DMSO |
| O=C(COc1ccc(Cl)cc1)N1CCN(Cc2ccc3c(c2)OCO3)CC1 | 106 % of DMSO |
| CN(C)[C@H]1CN(C2CCc3cccc(F)c32)C[C@@H]1c1ccc(N2CCN(S(C)(=O)=O)CC2)cc1 (stereo partly shown) | 141 % of DMSO |
| CCCC(C(=O)OCCN(CC)CC)(c1ccccc1)c1ccccc1 | 188 % of DMSO |

Other studies, line by line
| Compound | target | test | conditions | measurement | value |
| --- | --- | --- | --- | --- | --- |
| C[C@@H]1CN(c2ccc(-c3cc(C(=O)NCCOCCOCCOCCOCCNC(=O)Cn4cc(-c5[nH]cc(C(=O)N[C@@H](CC(N)=O)c6ccc(F)c(Cl)c6)c5-c5ccc(Cl)cc5F)cn4)ccc3F)cc2NC(=O)c2c[nH]c(=O)cc2C(F)(F)F)C[C@H](C)N1C | WD repeat-containing protein 5 (WDR5, Homo sapiens, UniProt P61964) | SPR | concentration not given | binding | 40.9% |

Repeated from above (series 3):
| Structure (SMILES) | nuclear SOX9 intensity |
| --- | --- |
| NC(=O)c1cn(C2OC(CO)C(O)C2O)c2ncnc(N)c2c1=O (stereo not shown) | 79.3 % of DMSO |
| CC[C@]12CCCN3CCc4c(n(c5ccccc45)[C@@](O)(C(=O)OC)C1)[C@@H]32 | 102 % of DMSO |
| O=C(NCCN1CCC(n2c(=O)[nH]c3ccccc32)CC1)c1cc2cc(F)ccc2[nH]1 | 210 % of DMSO |
| CC(=O)O[C@H]1CC[C@@]2(C)C(=CC[C@@H]3[C@@H]2CC[C@]2(C)C(c4cccnc4)=CC[C@@H]32)C1 | 106 % of DMSO |
